Measured values gathered from unrelated publications.
Lines come from different studies, so protocols differ. Numbers after ± are the reported error.
ORM1 F1/S variants: Alpha-1-acid glycoprotein 1, F1/S variants (ORM1, Homo sapiens, UniProt P02763)
Chain of UniProt P02763 (whole entry, looked up): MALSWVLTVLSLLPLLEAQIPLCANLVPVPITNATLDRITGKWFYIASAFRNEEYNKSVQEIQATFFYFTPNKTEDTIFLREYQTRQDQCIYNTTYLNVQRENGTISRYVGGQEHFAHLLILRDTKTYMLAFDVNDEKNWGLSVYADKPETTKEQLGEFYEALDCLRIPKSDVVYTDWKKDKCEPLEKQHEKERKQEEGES
DRD2: D(2) dopamine receptor (DRD2, Homo sapiens, UniProt P14416)
Chain of UniProt P14416 (whole entry, looked up): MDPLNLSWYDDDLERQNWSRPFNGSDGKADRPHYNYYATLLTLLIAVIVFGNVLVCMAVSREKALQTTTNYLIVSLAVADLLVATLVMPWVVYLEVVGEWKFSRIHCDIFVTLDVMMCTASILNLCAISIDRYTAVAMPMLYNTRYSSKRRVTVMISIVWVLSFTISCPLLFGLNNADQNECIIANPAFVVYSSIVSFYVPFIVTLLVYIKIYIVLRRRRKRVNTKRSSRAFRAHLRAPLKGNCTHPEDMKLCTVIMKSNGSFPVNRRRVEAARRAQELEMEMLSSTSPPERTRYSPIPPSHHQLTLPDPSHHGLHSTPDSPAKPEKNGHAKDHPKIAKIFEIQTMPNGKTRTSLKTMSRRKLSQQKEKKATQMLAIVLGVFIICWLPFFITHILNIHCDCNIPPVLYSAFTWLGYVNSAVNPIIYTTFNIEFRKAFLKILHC
Chain of UniProt P14618 (whole entry, looked up): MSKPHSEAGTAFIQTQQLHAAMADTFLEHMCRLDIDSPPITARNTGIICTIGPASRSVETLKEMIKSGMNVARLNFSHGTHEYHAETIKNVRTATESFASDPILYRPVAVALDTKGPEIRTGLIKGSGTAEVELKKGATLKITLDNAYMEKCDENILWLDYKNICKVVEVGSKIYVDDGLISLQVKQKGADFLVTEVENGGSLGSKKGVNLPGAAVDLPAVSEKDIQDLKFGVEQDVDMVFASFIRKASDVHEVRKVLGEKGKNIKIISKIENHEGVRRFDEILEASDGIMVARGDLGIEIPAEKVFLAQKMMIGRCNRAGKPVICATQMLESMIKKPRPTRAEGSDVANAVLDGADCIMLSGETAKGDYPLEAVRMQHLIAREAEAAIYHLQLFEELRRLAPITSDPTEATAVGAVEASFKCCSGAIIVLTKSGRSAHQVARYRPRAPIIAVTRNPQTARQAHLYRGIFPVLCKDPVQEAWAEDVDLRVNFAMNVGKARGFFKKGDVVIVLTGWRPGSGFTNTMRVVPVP
Chain of UniProt P34995 (whole entry, unmodified, looked up): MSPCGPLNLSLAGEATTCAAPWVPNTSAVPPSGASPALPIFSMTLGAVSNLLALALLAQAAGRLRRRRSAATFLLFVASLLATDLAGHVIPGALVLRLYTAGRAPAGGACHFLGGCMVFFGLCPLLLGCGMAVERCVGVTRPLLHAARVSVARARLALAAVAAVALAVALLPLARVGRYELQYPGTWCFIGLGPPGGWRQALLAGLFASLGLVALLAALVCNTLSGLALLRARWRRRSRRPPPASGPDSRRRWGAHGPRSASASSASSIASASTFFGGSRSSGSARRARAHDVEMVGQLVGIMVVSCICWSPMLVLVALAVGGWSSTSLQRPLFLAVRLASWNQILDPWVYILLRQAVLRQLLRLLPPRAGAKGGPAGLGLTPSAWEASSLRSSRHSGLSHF
Chain of UniProt O43318 (whole entry, looked up): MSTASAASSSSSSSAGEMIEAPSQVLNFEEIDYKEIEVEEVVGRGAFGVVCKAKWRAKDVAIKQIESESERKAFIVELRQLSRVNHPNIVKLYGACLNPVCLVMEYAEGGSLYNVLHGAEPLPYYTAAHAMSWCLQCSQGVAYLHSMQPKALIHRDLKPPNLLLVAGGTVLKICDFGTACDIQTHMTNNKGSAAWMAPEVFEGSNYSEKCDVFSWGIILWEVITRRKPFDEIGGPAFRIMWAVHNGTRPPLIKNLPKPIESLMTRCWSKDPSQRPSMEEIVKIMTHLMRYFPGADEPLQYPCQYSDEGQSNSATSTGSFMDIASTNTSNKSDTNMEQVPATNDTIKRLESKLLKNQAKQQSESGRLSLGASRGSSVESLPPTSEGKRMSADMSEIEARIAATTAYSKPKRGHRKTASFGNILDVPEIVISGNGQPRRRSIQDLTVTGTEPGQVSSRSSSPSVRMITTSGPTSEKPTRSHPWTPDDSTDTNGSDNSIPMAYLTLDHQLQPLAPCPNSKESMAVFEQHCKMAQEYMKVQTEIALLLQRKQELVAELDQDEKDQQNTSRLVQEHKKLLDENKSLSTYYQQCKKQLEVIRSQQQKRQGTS
Chain of UniProt P33261 (whole entry, looked up): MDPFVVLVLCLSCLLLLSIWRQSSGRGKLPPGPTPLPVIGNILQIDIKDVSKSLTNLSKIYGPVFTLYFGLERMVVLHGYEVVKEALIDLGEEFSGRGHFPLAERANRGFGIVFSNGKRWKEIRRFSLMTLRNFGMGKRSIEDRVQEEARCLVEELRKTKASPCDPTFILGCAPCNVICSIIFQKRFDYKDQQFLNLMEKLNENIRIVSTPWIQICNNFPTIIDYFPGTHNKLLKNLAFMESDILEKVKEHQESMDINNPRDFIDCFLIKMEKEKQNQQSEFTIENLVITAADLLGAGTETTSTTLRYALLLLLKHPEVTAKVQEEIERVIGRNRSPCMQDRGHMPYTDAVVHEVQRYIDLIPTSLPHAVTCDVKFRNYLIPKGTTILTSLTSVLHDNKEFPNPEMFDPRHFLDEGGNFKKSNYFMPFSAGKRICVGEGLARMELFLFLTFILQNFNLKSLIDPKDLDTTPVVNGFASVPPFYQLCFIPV

CSc1ccc2c(c1)N(CCC1CCCCN1C)c1ccccc1S2 (stereo not drawn)
Ki (ORM1 F1/S variants; competitive inhibitor, ultrafiltration; 15 min, 37 °C, added: [3H]S-warfarin): 930 nM

CCN(CC)S(=O)(=O)c1c(C)[nH]c(C)c1C(=O)Nc1ccc(C(F)(F)F)c(Cl)c1
IC50 (DRD2): > 100 µM

CCCCCCCCCCCCCCCCCCc1ccc(O)cc1
Kb (Albumin (ALB, Homo sapiens, UniProt P02768); modified Stern–Volmer; PBS; 37 °C): 19.3 mM

Cc1nn2c(N3CCN(CCO)CC3)cc(-c3ccccc3)nc2c1-c1ccccc1
EC50 (GTPase KRas, with SOS1 (KRAS, Homo sapiens, UniProt P01116); SOS-mediated GDP release): 5300 ± 2000 nM

O=c1nc(N2CCN(CC3CCCCC3)CC2)sc2c([N+](=O)[O-])cc(C(F)(F)F)cc12
IC50 (CYP2C19 (Homo sapiens, UniProt P33261); 60 (unit not given), pH 7.4): > 10 µM

CNC(=O)c1c(C)[nH]c(C)c1S(=O)(=O)Nc1ccc(C(F)(F)F)c(Cl)c1
IC50 (DRD2): > 100 µM

CCCCC[C@H](O)/C=C/[C@H]1[C@H](O)CC(=O)[C@@H]1C/C=C\CCCC(=O)O
EC50 (PTGER1 (Homo sapiens, UniProt P34995, H145A); IP1 accumulation, agonist; AD293; EP1 H145A mutant): 2.19 nM

Cc1c(C(=O)N(C)C)c(S(=O)(=O)Nc2ccc(C(F)(F)F)c(Cl)c2)c(C)n1C
IC50 (DRD2): > 100 µM

CN1CCN(c2ccc(Nc3ncc4cc(C#N)c(=O)n(C5CCCC5)c4n3)cc2)CC1
IC50 (Mitogen-activated protein kinase kinase kinase 7, with TAB1 (MAP3K7, Homo sapiens, UniProt O43318)): 0.597 µM

O=C(COP(=O)(O)O)[C@@H](O)[C@H](O)[C@H](O)COP(=O)(O)O
AC50 (Pyruvate kinase PKM (PKM, Homo sapiens, UniProt P14618); enzyme activity, activator; MGC-803 cell lysate; added: 0.2 mM PEP, 2 mM ADP): 43.9 ± 18.9 nM

COc1ccccc1OCCNCC(O)COc1cccc2[nH]c3ccccc3c12 (stereo not drawn)
Ki (ORM1 F1/S variants; competitive inhibitor, ultrafiltration; 15 min, 37 °C, added: [3H]tamsulosin): 5060 nM

Cc1[nH]c(C)c(C(=O)N2CCC(F)(F)C2)c1C(=O)Nc1ccc(C(F)(F)F)c(Cl)c1
IC50 (DRD2): > 100 µM

Repeated from above:
COc1ccccc1OCCNCC(O)COc1cccc2[nH]c3ccccc3c12 (stereo not drawn)
Ki (ORM1 F1/S variants; competitive inhibitor, ultrafiltration; 15 min, 37 °C, added: [3H]tamsulosin): 5060 nM
